Experimental data gathered from unrelated publications.
Each line is one published result; not all experiments were run side by side. Several values in a cell are separate wells, animals, samples, runs or records. ± marks the error that the study gave.
Sodium- and chloride-dependent glycine transporter 2: Sodium- and chloride-dependent glycine transporter 2 (Homo sapiens, UniProt Q9Y345)
MAPK8: Mitogen-activated protein kinase 8 (MAPK8, Homo sapiens, UniProt P45983)
Gria1/Gria2: Glutamate receptor AMPA 1/2 (Gria1/Gria2, Rattus norvegicus, UniProt P19490+P19491)

Compound	tested on	test	test system	conditions	scale	measurement	value
Cc1ccc2c(c1)C1CC(C)(N2)c2c(C)nc3ccc(C)cc3c21 (stereo not drawn)	Glideosome-associated protein 50 (GAP50, Plasmodium falciparum, UniProt Q8I2X3)	differential scanning fluorimetry				ΔTm	-3 °C
OC[C@@H]1[C@@H](O)[C@H](O)[C@@H](O)c2nccn21	bglA (Thermotoga maritima, UniProt Q08638)	ITC		concentration not given, pH 6.8, 25 °C		binding stoichiometry	0.96 ± 0.03
CN(CC1CCCN(CCc2cccc(C(F)(F)F)c2)C1)C(=O)c1ccco1 (stereo not drawn)	Trypanosoma cruzi	reporter mRNA translation, inhibitor, measured: capped polyadenylated Renilla luciferase mRNA	cell-free extract	concentration not given	baseline: control RNA	relative translation	97.9%
O=C(NC1CCN(Cc2ccccc2)CC1)c1ccccc1O	Sodium- and chloride-dependent glycine transporter 2	MS binding competition		10 µM		remaining specific binding	77.7 ± 1.4%
CC(C=CC=C(C)C=CC1=C(C)CCCC1(C)C)=CC=O	Rhodopsin (RHO, Homo sapiens, UniProt P08100, P23H)	immunostaining, measured: opsin	COS-7 transfected	10.00 µM, unit not given	baseline: surface over total stained cells	plasma membrane localization	0.42
C#CCOC(=O)[C@@]1(C)C=C(C(=O)OC(C)(C)C)C(=O)CC1	MAPK8	enzyme activity, D-SENSOR		14.81 µM, mean of replicates		normalized kinase activity	0.845
O=C(O)Cc1cc2c(cc1C(=O)c1ccccc1)OCO2	Gria1/Gria2	glutamate-evoked current, whole-cell patch clamp	HEK-293T	concentration not given, weighted tau, 1 ms pulse, added: glutamate		deactivation time constant	2.6 ± 0.2 ms
N=C(N)NCCS(=O)(=O)O	SLC6A6 (Homo sapiens, UniProt P31641, Y138A)	binding, microscale thermophoresis		43 nM, fitted curve	higher = more binding	fraction bound	0
CN(C)CCCSC(=S)N1CCN(C(=O)/C=C/c2coc3ccccc3c2=O)CC1	Nucleoprotein (N, Tomato spotted wilt virus, UniProt P25999)	binding, microscale thermophoresis		62.5 µM	dose series	normalised MST response	0.233
N#Cc1cccc(/C=C/C(=O)c2ccc(O)cc2)c1	P4HB (Homo sapiens, UniProt P07237)	thermal stability, DSF		100 µM		ΔTm	2.54 °C
CCCCCCCCCCCCC/C=C/C=O	Isoleucine--tRNA ligase, cytoplasmic (Homo sapiens, UniProt P41252)	competitive isoTOP-ABPP, measured: IARS cysteine peptide	Ramos soluble proteome	100 µM, added: iodoacetamide probe	baseline: DMSO over compound-treated, higher = stronger cysteine blockade	isoTOP-ABPP competition ratio	1
CC(=O)c1cnc(NS(=O)(=O)c2ccc(C(F)(F)F)c(Cl)c2)nc1	17-beta-hydroxysteroid dehydrogenase 13 (Homo sapiens, UniProt Q7Z5P4)	enzyme activity	human hepatocytes, HSD17B13 siRNA, culture medium	96 h	baseline: scramble siRNA control	oxidized product ratio	0.249 and 0.231 and 0.27 and 0.286
Fc1ccc(Nc2nc(NC3CCCCC3)c3ccccc3n2)cc1F	ADRB2 (Homo sapiens, UniProt P07550, C125V)	β-arrestin2 recruitment, antagonist, BRET		mutant C125V	baseline: isoprenaline maximal response	maximal inhibition	10.6%
O=C(O)Cc1cc2c(cc1C(=O)c1cccc(Br)c1)OCO2	Gria1/Gria2	glutamate-evoked current, whole-cell patch clamp	HEK-293T	concentration not given		current amplitude	101 ± 6 pA
C=CC(=O)N1CCCC(n2c(=O)c3ncccc3n(Cc3ccc(Oc4ccccc4)cc3)c2=O)C1 (stereo not drawn)	Host cell factor 1 (Homo sapiens, UniProt P51610)	thermal proteome profiling, measured: HCFC1		unit not given	baseline: vehicle	melting temperature shift	-5.16
Cc1cc(-c2ccccc2)cc(C(=O)NNS(=O)(=O)c2ccccc2)c1F	KAT5 (Homo sapiens, UniProt Q92993)	SPR		0.023 µM	higher = more binding	SPR binding response	0.115 RU
COC(=O)[C@@]1(C)C=C(C(=O)Nc2cccc(C(=O)Nc3ccc(Nc4nccc(-c5cccnc5)n4)c(C)c3)c2)C(=O)CC1	MAPK8	enzyme activity, inhibitor		8.36e-05 µM, 0 h, unit not given, added: GSH 10 mM pre-incubation	baseline: vehicle	remaining activity	1.03
CC(C)[C@@H]1NC(=O)[C@H](Cc2ccccc2)NC(=O)CSC[C@@H](C(N)=O)NC(=O)[C@H](CCC(=O)O)NC(=O)[C@H](CO)NC(=O)[C@H](Cc2c[nH]c3cccc(Cl)c23)NC(=O)[C@H](C2CCCCC2)NC(=O)[C@H](C(C)C)NC(=O)[C@H](Cc2ccc(O)cc2)NC(=O)[C@H](CC(=O)O)NC(=O)[C@H](Cc2c[nH]c3ccccc23)NC(=O)[C@H](Cc2ccc(N)nc2)NC(=O)[C@H](Cc2c[nH]c3ccc(Cl)cc23)NC(=O)[C@H](CCC(=O)O)NC1=O	Interleukin-1 receptor-like 2 (IL1RL2, Homo sapiens, UniProt Q9HB29)	reporter gene (SEAP), inhibitor, HEK-Blue IL-36R reporter	HEK-Blue IL-36R cells	0.41 µM, 6 h, added: IL-36γ 30 ng/mL		remaining activity	101%
COc1cc2nc(Cl)nc(Nc3ccc(Oc4cccc(-c5ccccc5)c4)cc3)c2cc1OC	SMUG1 (Homo sapiens, UniProt Q53HV7)	enzyme activity, activator, fluorescence		2 µM	baseline: control	activity	1200 ± 200%
NC(=NO)NCCC[C@H](N)C(=O)O	Arginase (Schistosoma mansoni, UniProt Q6WVP6)	isothermal titration calorimetry				stoichiometry second site	2.8 ± 0.2
C[Si](C)(C)C[C@@H](CN)CC(=O)O	alpha1 adrenergic receptor, rat	binding, radioligand binding		75 µM, added: [3H]prazosin		inhibition	3%
CCCCCC(O)/C=C/C=O (stereo not drawn)	26S proteasome regulatory subunit 8 (Homo sapiens, UniProt P62195)	acylphosphate-ATP probe SILAC-ABPP, measured: PSMC5	ZAK-transfected HEK293T	100 µM, added: acylphosphate-ATP probe	baseline: DMSO over compound-treated	probe labelling ratio	0.67
O=C1c2sc(-c3ccc(N4CCC(CO)CC4)nc3F)nc2CCN1c1cccnc1	TAR DNA-binding protein 43, aggregated (TARDBP, Homo sapiens, UniProt Q13148)	radioligand binding	human, FTLD-TDP type B sarkosyl-insoluble extract	1.8 nM		specific binding	0.246 nM
C=CC(=O)N1CC2(CCN(c3nc(OC4CCN(CCCOC)CC4)nc4c(OCC(F)(F)F)c(-c5c(C)ccc6[nH]ncc56)c(C5CC5)cc34)CC2)C1	GTPase KRas, GDP-bound (KRAS, Homo sapiens, UniProt P01116, G13D)	SPR				dissociation rate constant koff	0.0378 ± 0.0042 s⁻¹
CCc1sc(C(=O)NC2CCN(C)CC2)cc1Br	Trypanosoma cruzi	reporter mRNA translation, inhibitor, measured: capped polyadenylated Renilla luciferase mRNA	cell-free extract	concentration not given	baseline: control RNA	relative translation	107%
Cc1c(Cl)c(=O)oc2cc(OCCCCCCSC#N)ccc12	CA12 (Homo sapiens, UniProt O43570)	stopped-flow CO2 hydration			baseline: Ki CA I over Ki CA XII	selectivity ratio	> 2180
CC[C@H](C)[C@@H]1NC(=O)[C@H](C)NC(=O)[C@H](C(C)C)NC(=O)[C@H](CC(C)C)NC(=O)C[C@@H](C(=O)N[C@@H](Cc2c[nH]c3ccccc23)C(=O)N[C@@H](CC(N)=O)C(=O)N[C@@H](C)C(=O)N2CCC[C@H]2C(=O)NCC(=O)N[C@@H](Cc2c[nH]c3ccccc23)C(=O)N[C@@H](Cc2ccccc2)C(=O)O)NC(=O)[C@H](C)NC(=O)[C@H](CCC(N)=O)NC(=O)[C@H](C(C)C)NC1=O	TLR4 (Homo sapiens, UniProt O00206)	antagonist, ELISA		1 µg/mL, added: LPS	baseline: DMSO control, lower means stronger antagonism	OD450 in LPS binding ELISA	0.828 a.u. and 0.816 a.u. and 0.82 a.u. and 0.824 a.u.
CC1=CC(C)=[N+]2C1=C(CCCCN1CCC(O)(c3ccc(Cl)cc3)CC1)c1c(C)cc(C)n1[B-]2(F)F	Sodium- and chloride-dependent glycine transporter 2	MS binding competition		10 µM		remaining specific binding	95.5 ± 3.8%
CN1CCN(CC(=O)c2ccccc2)C1=O	Uridine nucleoside ribohydrolase (Trichomonas vaginalis, UniProt A2FTT0)	enzyme activity, 19F NMR		200 µM, 1-fold dilution		inhibition after jump dilution	71.6%
O=C(O)Cc1cc2c(cc1C(=O)c1cccc(I)c1)OCO2	Gria1/Gria2	whole-cell patch clamp	HEK-293T	concentration not given, added: glutamate		deactivation time constant	3.8 ± 0.3 ms

Some of these lines once more:
Compound	tested on	test	test system	conditions	scale	measurement	value
COC(=O)[C@@]1(C)C=C(C(=O)Nc2cccc(C(=O)Nc3ccc(Nc4nccc(-c5cccnc5)n4)c(C)c3)c2)C(=O)CC1	MAPK8	enzyme activity, inhibitor		8.36e-05 µM, 0 h, unit not given, added: GSH 10 mM pre-incubation	baseline: vehicle	remaining activity	1.03
CN(C)CCCSC(=S)N1CCN(C(=O)/C=C/c2coc3ccccc3c2=O)CC1	Nucleoprotein (N, Tomato spotted wilt virus, UniProt P25999)	binding, microscale thermophoresis		62.5 µM	dose series	normalised MST response	0.233
CC(C)[C@@H]1NC(=O)[C@H](Cc2ccccc2)NC(=O)CSC[C@@H](C(N)=O)NC(=O)[C@H](CCC(=O)O)NC(=O)[C@H](CO)NC(=O)[C@H](Cc2c[nH]c3cccc(Cl)c23)NC(=O)[C@H](C2CCCCC2)NC(=O)[C@H](C(C)C)NC(=O)[C@H](Cc2ccc(O)cc2)NC(=O)[C@H](CC(=O)O)NC(=O)[C@H](Cc2c[nH]c3ccccc23)NC(=O)[C@H](Cc2ccc(N)nc2)NC(=O)[C@H](Cc2c[nH]c3ccc(Cl)cc23)NC(=O)[C@H](CCC(=O)O)NC1=O	Interleukin-1 receptor-like 2 (IL1RL2, Homo sapiens, UniProt Q9HB29)	reporter gene (SEAP), inhibitor, HEK-Blue IL-36R reporter	HEK-Blue IL-36R cells	0.41 µM, 6 h, added: IL-36γ 30 ng/mL		remaining activity	101%
